Measured values from different studies.
Compare with care: the assays were run in different laboratories. ± gives the spread as reported.
Cell line: U-251

| Structure (SMILES) | test | conditions | how to read | endpoint | value |
| --- | --- | --- | --- | --- | --- |
| CCC(=C(c1ccc(Cl)cc1)c1ccc(OCCCN(C)C)cc1)c1ccc(OC)cc1 | cell growth or viability, SRB | – | – | GI50 | 1.66 µM |
| O=C(c1cc(Cc2n[nH]c(=O)c3ccccc23)ccc1F)N1CCN(C(=O)C2CC2)CC1 | cell growth, MTT | 168 h | – | IC50 | 8 ± 1.2 µM |
| COc1cc(/C=C/C(=O)/C=C(O)/C=C/c2ccc(OCC(=O)N3CCOCCOCCOCC3)c(OC)c2)ccc1OCC(=O)N1CCOCCOCCOCC1 | cell growth or viability, SRB | – | – | IC50 | 6.8 µM |
| COc1ccc(C2=Nn3c(NN=C4C(=O)N(Cc5ccccc5)c5ccc(Cl)cc54)nnc3SC2)cc1 | cell growth or viability, SRB | 10 µM | – | inhibition | 33% |
| CC(=C(c1ccc(O)cc1)c1ccc(Cl)cc1)c1ccc(Cl)cc1 | cell growth or viability, SRB | – | – | GI50 | 0.57 µM |
| CC/C=C\C/C=C\C/C=C\C/C=C\C/C=C\C/C=C\CCC(=O)Nc1ccn(C2OC(CO)C(O)C2(F)F)c(=O)n1 (stereo not drawn) | cell growth or viability, SRB | – | – | GI50 | 0.0305 µM |
| O=C(/C=C/c1ccc2c(c1)C(=O)N(CCCc1ccccc1)CC2)NO | cell growth, SRB | 72 h | – | IC50 | 7.68 ± 2.31 µM |
| CN1CCc2cc(Nc3ncc(C(F)(F)F)c(NCc4cc[nH]n4)n3)ccc2C1 | cell growth or viability, MTT | 72 h | – | IC50 | 4.45 µM |
| C[C@H](CCC=O)[C@@H]1CC[C@]2(C)C3=C(CC[C@@]12C)[C@@]1(C)CC[C@H](O)C(C)(C)[C@@H]1CC3 | cell growth or viability, SRB | – | – | IC50 | 30.9 µM |
| COc1cc(/C=C/C(=O)/C=C(O)/C=C/c2ccc(OCC(=O)N3CCOCCOCCOCCOCCOCC3)c(OC)c2)ccc1OCC(=O)N1CCOCCOCCOCCOCCOCC1 | cell growth or viability, SRB | 5 µM | – | inhibition | 13.8% |
| COc1ccc(C2=Nn3c(NN=C4C(=O)N(C)c5ccc(Br)cc54)nnc3SC2)cc1 | cell growth or viability, SRB | 10 µM | – | inhibition | 15% |
| CC(=O)OC[C@H]1O[C@@H](Sc2sc(C(=O)c3ccc(C)cc3)c(N)c2-c2nc3ccccc3s2)[C@H](OC(C)=O)[C@@H](OC(C)=O)[C@H]1OC(C)=O | SRB | 10 µM, 48 h | baseline: untreated | growth | 93.7% |

Repeated from above:
| Structure (SMILES) | test | conditions | how to read | endpoint | value |
| --- | --- | --- | --- | --- | --- |
| CC(=C(c1ccc(O)cc1)c1ccc(Cl)cc1)c1ccc(Cl)cc1 | cell growth or viability, SRB | – | – | GI50 | 0.57 µM |
